Experimental data gathered from unrelated publications.
Each line is one published result; not all experiments were run side by side. Several values in a cell are separate wells, animals, samples, runs or records. Numbers after ± are the reported error.

Compound	assay	system	setting	how to read	measurement	value
O=C1NC2(CC2)COc2ncc(F)cc2[C@H]2COCCN2c2ccn3ncc1c3n2		Sprague-Dawley rat, female, serum	oral, 10 mg/kg/day, 4 weeks daily, end of treatment		creatinine	37.7 ± 5.3 µmol/L
CCCC[C@H]1C(=O)N(C)[C@@H](CCCC)C(=O)N[C@@H](CCCNC(=O)CN2CCN(CC(=O)O)CCN(CC(=O)O)CCN(CC(=O)O)CC2)C(=O)N[C@H](C(=O)NCC(N)=O)CSCC(=O)N[C@@H](Cc2ccc(O)cc2)C(=O)N(C)[C@@H](C)C(=O)N[C@@H](CC(N)=O)C(=O)N2CCC[C@H]2C(=O)N[C@@H](Cc2c[nH]cn2)C(=O)N[C@@H](CC(C)C)C(=O)N(C)CC(=O)N[C@@H](Cc2c[nH]c3ccccc23)C(=O)N[C@@H](CO)C(=O)N[C@@H](Cc2c[nH]c3ccccc23)C(=O)N1C [gallium-68 labelled]		NOD/SCID mice with CHO-hPD-L1 xenograft, muscle	60 min post injection		tissue uptake	2 ± 0.53 %ID/g
CSCC[C@H](N)C(=O)N[C@@H](C)C(=O)N[C@@H](Cc1c[nH]c2ccccc12)C(=O)N[C@@H](Cc1c[nH]cn1)C(=O)N[C@@H](CC(=O)O)C(=O)N[C@@H](CC(=O)O)C(=O)N[C@@H](CCC(=O)O)C(=O)N[C@@H](CCC(=O)O)C(=O)N[C@@H](Cc1ccccc1)C(=O)N[C@@H](C)C(=O)N[C@@H](CCCNC(=N)N)C(=O)N[C@@H](CCCNC(=N)N)C(=O)N[C@@H](CCCNC(=N)N)C(=O)N[C@@H](CCCNC(=N)N)C(=O)NCCCCCC(=O)NCCCCC(NC(=O)CCCCCNC(=O)[C@H](CCCNC(=N)N)NC(=O)[C@H](CCCNC(=N)N)NC(=O)[C@H](CCCNC(=N)N)NC(=O)[C@H](CCCNC(=N)N)NC(=O)[C@H](C)NC(=O)[C@H](Cc1ccccc1)NC(=O)[C@H](CCC(=O)O)NC(=O)[C@H](CCC(=O)O)NC(=O)[C@H](CC(=O)O)NC(=O)[C@H](CC(=O)O)NC(=O)[C@H](Cc1c[nH]cn1)NC(=O)[C@H](Cc1c[nH]c2ccccc12)NC(=O)[C@H](C)NC(=O)[C@@H](N)CCSC)C(=O)NCCCCC(NC(=O)C(CCCCNC(=O)CCCCCNC(=O)[C@H](CCCNC(=N)N)NC(=O)[C@H](CCCNC(=N)N)NC(=O)[C@H](CCCNC(=N)N)NC(=O)[C@H](CCCNC(=N)N)NC(=O)[C@H](C)NC(=O)[C@H](Cc1ccccc1)NC(=O)[C@H](CCC(=O)O)NC(=O)[C@H](CCC(=O)O)NC(=O)[C@H](CC(=O)O)NC(=O)[C@H](CC(=O)O)NC(=O)[C@H](Cc1c[nH]cn1)NC(=O)[C@H](Cc1c[nH]c2ccccc12)NC(=O)[C@H](C)NC(=O)[C@@H](N)CCSC)NC(=O)CCCCCNC(=O)[C@H](CCCNC(=N)N)NC(=O)[C@H](CCCNC(=N)N)NC(=O)[C@H](CCCNC(=N)N)NC(=O)[C@H](CCCNC(=N)N)NC(=O)[C@H](C)NC(=O)[C@H](Cc1ccccc1)NC(=O)[C@H](CCC(=O)O)NC(=O)[C@H](CCC(=O)O)NC(=O)[C@H](CC(=O)O)NC(=O)[C@H](CC(=O)O)NC(=O)[C@H](Cc1c[nH]cn1)NC(=O)[C@H](Cc1c[nH]c2ccccc12)NC(=O)[C@H](C)NC(=O)[C@@H](N)CCSC)C(N)=O (stereo partly shown)		C57BL/6 mouse female, femur	dose not given, 6 h	relative to: total	tissue distribution	1.29% and 1.62% and 1.38%
CN1Cc2cc(Cl)ccc2-n2c(nnc2C2CCN(c3cccc(F)n3)CC2)C1		male Sprague-Dawley rat, plasma	intravenous, 0.03 mg/kg, 30 min		concentration	0.00437 µg/mL
C=Cc1c(C)c2cc3nc(c(CC(=O)[O-])c4[n-]c(cc5nc(cc1[n-]2)C(C)=C5CC)c(C)c4C(=O)[O-])C(CCC(=O)[O-])C3C.[Cu+2].[Na+].[Na+].[Na+] (stereo not shown)		Wistar rat, female	oral, 500 mg/kg daily, 28 days		serum cholesterol	48.3 ± 9.97 mg/dL
CSCC[C@H](NC(=O)CNC(=O)[C@H](CCCCN)NC(=O)[C@H](CC(C)C)NC(=O)[C@@H]1CCCN1C(=O)[C@H](CO)NC(=O)[C@H](Cc1c[nH]cn1)NC(=O)[C@H](Cc1c[nH]c2ccccc12)NC(=O)[C@H](CCCNC(=N)N)NC(=O)[C@H](CC(C)C)NC(=O)[C@H](CCCNC(=N)N)NC(=O)[C@H](Cc1c[nH]c2ccccc12)NC(=O)[C@H](CS)NC(=O)CCCCCNC(=O)CN1CCN(CC(=O)O)CCN(CC(=O)O)CCN(CC(=O)O)CC1)C(=O)O [copper-64 labelled]	ex vivo biodistribution	male C57BL/6J mice, kidney	intravenous, 1.85 MBq, 30 h, B16-F10 tumour-bearing		tissue uptake	7.45 %ID/g
O=S(=O)(c1ccc2c(c1)OCO2)n1cc(CCCCN2CCC(=C(c3ccc(F)c(F)c3)c3ccc(F)c(F)c3)CC2)nn1	body weight	mouse	10 50 mg/kg		tolerability	not toxic
Cc1cc(-c2ccc3ccccc3c2)nnc1NCCN1CCN(C)CC1	metabolic stability	human, liver microsomes	1 h		compound remaining	87.7%
C#Cc1c(F)ccc2cc(O)cc(-c3ncc4c(N5CC6CCC(C5)N6C(=O)OC(CCC)OC(=O)CCC)nc(OC[C@@]56CCCN5C[C@H](F)C6)nc4c3F)c12 (stereo partly shown)	measured: prodrug	mouse whole blood	1 µM		t1/2	4.85 min
CC(C)(CCCC/C=C/CCCCCC(C)(C)C(=O)O)C(=O)O		beagle dog, both sexes	oral, dose not given, 0.5 h		plasma concentration	35.2 µg/mL
CC[C@H](C)[C@H](NC(=O)[C@H](C)NC(=O)[C@H](CCCCN)NC(=O)[C@H](CCCCN)NC(=O)[C@@H](N)CCCNC(=N)N)C(=O)N[C@@H](CCCCN)C(=O)N[C@@H](CC(C)C)C(=O)N[C@H](C(=O)N[C@@H](CCCCN)C(=O)N[C@@H](CCCCN)C(=O)N[C@@H](CC(C)C)C(=O)N[C@H](C(=O)N[C@@H](CCCCN)C(=O)N[C@@H](CCCCN)C(=O)N[C@@H](CC(C)C)C(=O)N[C@@H](CCCCN)C(=O)N[C@@H](CCCCN)C(=O)N[C@@H](C)C(=O)N[C@@H](CC(C)C)C(=O)N[C@@H](CCCCN)C(=O)O)C(C)C)C(C)C		human red blood cells	32 mg/L, 1 h, mean of replicates		hemolysis	3.94%
CCCCC[C@H]1C(=O)N[C@H](C)C(=O)N(C)[C@@H](CCCCC)C(=O)N(C)[C@H](C)C(=O)N(C)[C@@H](CCCCC)C(=O)N(C)[C@H](C)C(=O)N(C)[C@@H](CCCCC)C(=O)N(C)[C@H](C)C(=O)N1C	PAMPA		500 µM, pH 7.4, UV/ELSD/MS detection		log Papp	-5.36
NC1CCN(C(=O)Oc2ccc(C3CCCC4(C3)OOC3(O4)C4CC5CC(C4)CC3C5)cc2)CC1 (racemic)		citrate buffer	24 h, anaerobic, with: 50 mM ferrous iron		parent remaining	> 50% and 67%
CCCCCCCCCCCCCCCC(=O)N[C@@H](CCC(=O)NCCCC[C@H](NC(=O)[C@H](CC(=O)O)NC(=O)[C@H](CO)NC(=O)[C@@H](NC(=O)[C@H](Cc1ccccc1)NC(=O)[C@@H](NC(=O)CNC(=O)[C@H](CCC(N)=O)NC(=O)[C@H](C)NC(=O)[C@@H](Cc1ccc(O)cc1)NC(C)=O)[C@@H](C)O)[C@@H](C)O)C(=O)N[C@@H](CO)C(=O)N[C@@H](CCCCN)C(=O)N[C@@H](Cc1ccc(O)cc1)C(=O)N[C@@H](CC(C)C)C(=O)N[C@@H](CC(=O)O)C(=O)N[C@@H](CCC(=O)O)C(=O)N[C@@H](CCCNC(=N)N)C(=O)N[C@@H](C)C(=O)N[C@@H](C)C(=O)N[C@@H](CCC(N)=O)C(=O)N[C@@H](CC(=O)O)C(=O)N[C@@H](Cc1ccccc1)C(=O)N[C@H](C(=O)N[C@@H](CCC(N)=O)C(=O)N[C@@H](Cc1c[nH]c2ccccc12)C(=O)N[C@@H](CC(C)C)C(=O)N[C@@H](CC(C)C)C(=O)N[C@@H](CCC(=O)O)C(=O)NCC(=O)NCC(=O)N1CCC[C@H]1C(=O)N[C@@H](CO)C(=O)N[C@@H](CO)C(=O)NCC(=O)N[C@@H](C)C(=O)N1CCC[C@H]1C(=O)N1CCC[C@H]1C(=O)N1CCC[C@H]1C(=O)N[C@@H](CO)C(N)=O)C(C)C)C(=O)O		cynomolgus monkey, plasma	intravenous, 0.0031 mg/kg		Vss	0.0279 to 0.0405 L/kg
CC[C@H](C)[C@H](NC(=O)[C@H](CCCCN)NC(=O)CNC(=O)[C@H](CC(C)C)NC(=O)[C@H](Cc1ccccc1)NC(=O)[C@H](CCCCN)NC(=O)[C@H](CO)NC(=O)[C@H](Cc1ccccc1)NC(=O)[C@H](Cc1c[nH]c2ccccc12)NC(=O)[C@H](CCC(N)=O)NC(=O)[C@@H](NC(=O)[C@H](Cc1ccccc1)NC(=O)CCCCCNC(=O)CN1CCN(CC(=O)O)CCN(CC(=O)O)CCN(CC(=O)O)CC1)C(C)C)C(=O)N[C@@H](CCC(=O)O)C(=O)N1CCC[C@H]1C(=O)N[C@@H](CC(=O)O)C(=O)N[C@H](C(=O)N[C@@H](CO)C(=O)N[C@@H](CCC(N)=O)C(=O)N[C@H](C(=O)N[C@@H](CCC(N)=O)C(=O)N[C@@H](CC(=O)O)C(=O)N1CCC[C@H]1C(=O)N[C@@H](CC(N)=O)C(=O)N[C@@H](CC(=O)O)C(=O)N[C@@H](CCC(N)=O)C(=O)N[C@@H](Cc1ccc(O)cc1)C(=O)N[C@@H](CCC(=O)O)C(=O)N1CCC[C@H]1C(=O)N[C@@H](Cc1ccccc1)C(=O)O)C(C)C)C(C)C [copper-64 labelled]	dynamic PET	mouse, CT26 tumour, checkpoint inhibitor-treated, tumour	intravenous, 100 µCi/mouse, 1260 s		SUVmean	4.86 SUV
CC(C)[C@@H]1NC(=O)CNC(=O)[C@H](CC(N)=O)NC(=O)[C@H](CCCNC(=N)N)NC(=O)[C@H](Cc2ccc(O)cc2)NC(=O)[C@H](C(C)C)NC(=O)[C@@H](NC(=O)[C@@H](NC(=O)[C@H](CC(N)=O)NC(=O)[C@H](Cc2c[nH]c3ccccc23)NC(=O)[C@H](C)NC(=O)[C@H](Cc2ccccc2)NC(=O)CNC(=O)[C@H](CCCCN)NC(=O)[C@H](Cc2ccccc2)NC(=O)[C@H](Cc2ccccc2)NC(=O)[C@H](CCCCN)NC(=O)OCC2c3ccccc3-c3ccccc32)C(C)C)CSSC[C@@H](C(=O)N[C@@H](Cc2c[nH]cn2)C(=O)N[C@@H](CCCNC(=N)N)C(=O)N[C@@H](CCCNC(=N)N)C(=O)N[C@@H](C)C(=O)N[C@@H](CC(N)=O)C(N)=O)NC(=O)[C@H](C(C)C)NC(=O)[C@H](CCCNC(=N)N)NC1=O	HPLC	mouse mammary gland homogenate	2560 µM, 16.00 h, 37 °C, 50 mg/mL tissue		remaining peptide	53.2% and 59.3% and 58%
CC(=O)NCCCC[C@@H]1NC(=O)[C@H](Cc2c[nH]c3c(C)cccc23)NC(=O)[C@H]([C@@H](C)O)NC(=O)[C@H](CC(N)=O)NC(=O)[C@@H](NC(C)=O)C(C)(C)SSC(C)(C)[C@@H](C(=O)N[C@@H](Cc2ccc(OCCN)cc2)C(=O)N[C@@H](Cc2ccc3ccccc3c2)C(=O)NC2(C(=O)N[C@@H](CCC(=O)O)C(=O)N[C@@H](CC(N)=O)C(=O)N[C@@H](Cc3cccnc3)C(=O)N(C)CC(N)=O)CCOCC2)NC1=O		human, plasma	oral, 25 mg, single dose, healthy volunteers		CL/F	4530 L/h
CCN(CC)CCOc1ccc(-c2nnn(Cc3ccc(OC)cc3)c2N)cc1	metabolic stability	dog, plasma			half-life	> 373 min
N=C(N)NCCC[C@H](NC(=O)[C@H](CCCNC(=N)N)NC(=O)[C@H](CCCNC(=N)N)NC(=O)[C@H](CCC(N)=O)NC(=O)[C@H](CCCNC(=N)N)NC(=O)[C@H](CCCNC(=N)N)NC(=O)[C@H](CCCCN)NC(=O)[C@H](CCCCN)NC(=O)[C@H](CCCNC(=N)N)NC(=O)CNC(=O)[C@H](Cc1ccc(O)cc1)NC(=O)[C@H](Cc1ccccc1)NC(=O)[C@H](Cc1ccccc1)NC(=O)[C@H](Cc1ccccc1)NC(=O)OCC1c2ccccc2-c2ccccc21)C(=O)O		C57BL/6 mice	intraperitoneal, 20 mg/kg, 24 h	direction not given	health score	5

Repeated from above:
Compound	assay	system	setting	how to read	measurement	value
CC(C)[C@@H]1NC(=O)CNC(=O)[C@H](CC(N)=O)NC(=O)[C@H](CCCNC(=N)N)NC(=O)[C@H](Cc2ccc(O)cc2)NC(=O)[C@H](C(C)C)NC(=O)[C@@H](NC(=O)[C@@H](NC(=O)[C@H](CC(N)=O)NC(=O)[C@H](Cc2c[nH]c3ccccc23)NC(=O)[C@H](C)NC(=O)[C@H](Cc2ccccc2)NC(=O)CNC(=O)[C@H](CCCCN)NC(=O)[C@H](Cc2ccccc2)NC(=O)[C@H](Cc2ccccc2)NC(=O)[C@H](CCCCN)NC(=O)OCC2c3ccccc3-c3ccccc32)C(C)C)CSSC[C@@H](C(=O)N[C@@H](Cc2c[nH]cn2)C(=O)N[C@@H](CCCNC(=N)N)C(=O)N[C@@H](CCCNC(=N)N)C(=O)N[C@@H](C)C(=O)N[C@@H](CC(N)=O)C(N)=O)NC(=O)[C@H](C(C)C)NC(=O)[C@H](CCCNC(=N)N)NC1=O	HPLC	mouse mammary gland homogenate	2560 µM, 16.00 h, 37 °C, 50 mg/mL tissue		remaining peptide	53.2% and 59.3% and 58%
Cc1cc(-c2ccc3ccccc3c2)nnc1NCCN1CCN(C)CC1	metabolic stability	human, liver microsomes	1 h		compound remaining	87.7%
